Assay results from different studies.
Numbered parts are unrelated; each lists some results of a single study. Substitutions count along the parent as printed.

Set 1
Target: JUN, bZIP domain (human)
Technique: DHFR protein complementation
Matrix: yeast
Setting: single substitutions, most at no-binding floor
Relative to: wild-type JUN-FOS pair
Reading: higher = stronger binding
Parent: JUN, bZIP domain (human); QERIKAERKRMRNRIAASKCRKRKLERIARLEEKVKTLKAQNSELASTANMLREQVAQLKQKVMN; partner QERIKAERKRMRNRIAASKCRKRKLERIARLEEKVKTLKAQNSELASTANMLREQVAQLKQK
Change | binding fitness
L45M | -0.633 natural log
A29C | -0.553 natural log
T37E | -0.0196 natural log
A46E | -0.108 natural log
R30L | -0.205 natural log
R30G | -0.336 natural log
T37C | -0.209 natural log
Q55R | -0.642 natural log
K39R | -0.186 natural log
E44N | -0.528 natural log
Q41H | -0.506 natural log
K36D | -0.432 natural log
Q58H | -0.262 natural log
E32R | -0.442 natural log
R30F | -0.21 natural log
R30S | -0.137 natural log

Set 2
Target: Ras GTPase-activating protein-binding protein 1, full length (G3BP1, Homo sapiens, UniProt Q13283)
UniProt Q13283, sequence (whole entry, looked up): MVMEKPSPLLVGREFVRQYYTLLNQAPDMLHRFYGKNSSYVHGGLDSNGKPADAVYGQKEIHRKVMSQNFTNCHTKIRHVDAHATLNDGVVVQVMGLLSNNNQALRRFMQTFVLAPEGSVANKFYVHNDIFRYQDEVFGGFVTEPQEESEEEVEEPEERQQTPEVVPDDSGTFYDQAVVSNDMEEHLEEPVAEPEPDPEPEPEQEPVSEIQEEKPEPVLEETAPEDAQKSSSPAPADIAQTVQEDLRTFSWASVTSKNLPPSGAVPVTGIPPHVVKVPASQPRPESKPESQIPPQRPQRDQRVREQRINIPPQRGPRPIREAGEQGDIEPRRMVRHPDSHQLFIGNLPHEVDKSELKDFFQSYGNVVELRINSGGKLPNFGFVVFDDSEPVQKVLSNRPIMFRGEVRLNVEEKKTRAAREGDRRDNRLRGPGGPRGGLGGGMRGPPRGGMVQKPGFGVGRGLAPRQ
Technique: RNA Bind-n-Seq
Form: RNA
Matrix: in vitro
Concentration: 200 nM
Setting: whole 134-nt RNA, ends assumed
With: 150 mM LiCl
Relative to: input library
Reading: higher = stronger binding
All molecules: 7-deaza-guanosine replaces G
Shared flanks, not repeated: GGGAGUUCUACAGUCCGACGAUC … UGGAAUUCUCGGGUGUCAAGG
Oligonucleotide | log2 enrichment
UAACUUUAGAGGAGGAUCUGAUGGAAAUGGCAGUGGACGUGGAUUUGGGGAUGGCUAUAAUGGGUAUGGAGGAGGACCUGGAGGUGGCAA | -0.277
GUCCUGUGCUACACAUCGUAUGUACCGAAUCGGGGUGGGGUUUGGGGUUUUUUUGGGGAAAGUAUUAUGUUACGCCGUUCGGAUCUGCAC | -0.305
CACAGACAACACGCACCCACACUGACACAGAGGGAAGGGGUUGGGAUGGGGACAGGGUGCACAGCAGGGCGGGGUAGGACCCCAGCCCCU | 0.613
UUUCUCUCACCAGGUACCAGGUCAUCAGUACACCAUCUGAUAUUUUCAUGGUGAUGGAAUAUGUCUCAGGAGGAGAGCUAUUUGAUUAUA | 0.344
GUCCUGUGCUACACAUCGUAUGUACCGAAUCGGGUUUUUGGGUUUUUGGGUUUUUGGGAAAGUAUUAUGUUACGCCGUUCGGAUCUGCAC | -0.226
UUCUUGCCAGAGACGAAGAAGCGCAAGAAACGCAAGUCAGAGGAUGGCACGCCAGCGGAGGAUGGCACACCUGCAGCCACCGGCGGGAGC | -1.18
UCCUGUGCUACACAUCGUAUGUACCGAAUCGGGGAAAGGGGAAAAAAAGGGGUUUGGGGAAAGUAUUAUGUUACGCCGUUCGGAUCUGCA | 0.109
UCCUGUGCUACACAUCGUAUGUACCGAAUCGGGGCCCCCCGGGCCCCCCGGGCCCCCCGGAAAGUAUUAUGUUACGCCGUUCGGAUCUGC | -0.664
UCAAGUCCUGUGCUACACAUCGUAUGUACCGAAUCGGAGGUUUGGAAAAAAAGGAAAGUAUUAUGUUACGCCGUUCGGAUCUGCACUUCC | -1.06
UGGGGGGUGGAUUUUGUUUAUUUUUUUAGCUCAUUUCCAGGGGUGGGAAUUUUUUUUUAAUAUGUGUCAUGAAUAAAGUUGUUUUUGAAA | 0.825
CACAGACAACACGCAACCACACAGACACAGAGGGAAGGGGUUGGGAUGGGGACAGGGUGCACAGCAGGGCGGGGUAGGACCCCAGCCCCU | 0.438

Set 3
Target: ABI1, truncated, D143A, DHFR fusion (Arabidopsis thaliana)
Technique: DHFR PCA, deep sequencing
Matrix: yeast
Setting: methotrexate growth selection, single substitutions
With: (+)-ABA 0.032 µM
Relative to: wild-type fitted maximum
Reading: higher = stronger binding
Parent: PYL1, truncated, DHFR fusion (Arabidopsis thaliana); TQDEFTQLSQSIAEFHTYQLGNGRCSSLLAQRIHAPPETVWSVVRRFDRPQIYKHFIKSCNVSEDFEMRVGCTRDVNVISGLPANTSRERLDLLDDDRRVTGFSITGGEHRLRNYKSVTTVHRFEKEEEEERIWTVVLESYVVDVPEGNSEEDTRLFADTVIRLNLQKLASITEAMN; partner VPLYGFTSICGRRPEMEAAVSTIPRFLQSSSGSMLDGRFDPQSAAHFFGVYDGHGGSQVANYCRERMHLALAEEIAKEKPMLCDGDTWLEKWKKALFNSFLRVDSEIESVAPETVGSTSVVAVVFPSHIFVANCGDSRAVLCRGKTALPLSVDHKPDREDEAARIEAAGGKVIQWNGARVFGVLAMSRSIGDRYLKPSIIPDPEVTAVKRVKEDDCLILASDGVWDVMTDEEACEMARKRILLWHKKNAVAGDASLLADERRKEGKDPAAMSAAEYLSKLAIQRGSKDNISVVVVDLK
Change | relative binding score [%]
L28G | 3.57
T101Q | -3.02
D144R | -1.52
V143S | -2.48
Y18R | -1.3
T135I | -4.65
F5M | 37
E67L | 0.34
V100M | 6.16
S150L | 3.62
R46Y | -5.26
E38L | 0.521
E130S | 38.2
T160M | 2.56
D97Q | 46.5

Set 4
Target: RNA binding protein fox-1 homolog 2, RRM domain, GST-SBP tag (RBFOX2, Homo sapiens, UniProt O43251-10, residues 100-194)
Technique: RNA Bind-n-Seq
Form: RNA
Matrix: in vitro
Concentration: 365 nM
Setting: natural RNA segment, single round, ends assumed
Relative to: no-protein control
Reading: higher = stronger binding
Shared flanks, not repeated: GGGAGUUCUACAGUCCGACGAUC … UGGAAUUCUCGGGUGCCAA
Construct (chain): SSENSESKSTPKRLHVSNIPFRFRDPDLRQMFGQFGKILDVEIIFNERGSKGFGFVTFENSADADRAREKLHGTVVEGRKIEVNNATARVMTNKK
Oligonucleotide | RBNS enrichment (R)
GAUCUAUUUAUAAUGAAUUCACAAUUUAUGCCUAUAAAUUUCAGAUGAUUUAAAAUUUUAAACCUGUUACAUUGAAAAACAUUGAAGUUCGUCUUGAAGAAAGCAUUAAG | 2.1
GUCCCUCUCAAUGGCACUCUUUGCCUAGACCAAACUAAUGACCAAACAGUAAUCAAUCUAUCACUGUUGAAGUCCUGGUUUUCUCAACCAAAUUUUAAGUCUUUCCCAGG | 0.222
CUCUAUUACGCAAUGUUCCGAAGUUAAAACCCACCAUCCUGCCGCUCAAGAAGACUGACCGGUACGGGACACUCGAGGCUUUGAAUGGGACACCCUAUUCUGCCUUUUUU | 0.283
AAUGCCUUGUACUACAGGCAGCCUCUGAAGGUGACCACAUAACUGUCUUCACUGUGACCAAUCGGAGUCCCUGCUUGCUUGUGAAGAAGGGGCUUUUGUACCUUGUUGGA | 0.542
UUAACCUGUUCCAUCCCAUGGAACCACAGAGGAGGAAGACCUUGAAUUAUUCUGUCACCCAGCCUGGCGUAGGACUCUUUUGGUCCUGCCUGCUUCCUAUCUCUGGAGGA | 0.255
GGAUUCAAGCUGUCUUUGCACUAGCUCUAAAGAAGAUUUUCUUCUGGUUUUAGAGAACUAAUUUUGUUUUAGCAUUAAACUGUUGAACUUUUUUUUGUACUUAGAAAACC | 0.398
GGGGAUUAGGCUCUUUUAGGUAACUGGCUUUCCUGCUGGUCCGUGCGGGAAAUUCAGUCUUGAUUUAACCUUAAUUUUACAGCCCUUGGCUUGUGUUAUCGGACAUUCUA | 0.576
UAGGUGUCUUUAAGAAAAUAACAAGCAACCCUGUGAUAUGUUCCGUCUCUCCCAAUUCCCUCGUUAUAUAGAGGGCUUAAUGGUAUAAAUGGUUAAUAUUGGUCCCAACA | 0.948
GAUGUAAAACACAAGCCAGACAGAUGGCAAAGACUAGACUUGCCCGCAAAGAAAUUGAGUUGAUUAGGCAAGUCUAUACAAUUAGAGGCAAAGGUCACAGUGAUGCAAAA | 0.563
GGGCCCCCCAGGUGCUAAUGGCGAACAGUGUCUGAUCAUUGAAACACAGCACAGUUUCCUCCCUGAGCCCCAGCCGUGGGGAACAUCUGGAGUCAACAGAGUCACUGGGA | 0.193
CUCAAUCCUCGGUGAUAUGGGAAAGAGAACUGAGUAUUUGCCCUAUGACUGAGCUUUCUAUAGGAAUUUUAUUAAAGAAUGUUUAAUUUUGUUGUCCUUCUUAAUGUUCU | 0.963
UUGCCUGCUUUUGGGCCUAGAUAACGUCACUGUCUACAAAAAGCUAACUGCUUAGGUUUGAAAAGGCAACCAUGUAGAGAAAACUUGACAAUUGGGGCUCAUUGGGAAGU | 0.536

Set 5
Target: CCNB2, cyclin fold, Cln2 fusion (human)
Technique: yeast growth competition, sequencing
Matrix: yeast
Setting: weak parent motif
Relative to: not given
Reading: higher = stronger binding
Parent: RBL1 docking peptide (human); GSAKRRLFGEDPP; partner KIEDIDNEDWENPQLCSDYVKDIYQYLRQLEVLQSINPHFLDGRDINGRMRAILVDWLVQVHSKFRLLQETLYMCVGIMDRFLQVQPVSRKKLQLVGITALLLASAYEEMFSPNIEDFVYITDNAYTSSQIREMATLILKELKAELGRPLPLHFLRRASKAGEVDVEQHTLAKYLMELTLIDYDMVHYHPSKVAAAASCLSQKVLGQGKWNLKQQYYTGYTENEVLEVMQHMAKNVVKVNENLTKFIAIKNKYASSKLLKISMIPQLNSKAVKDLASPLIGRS
Change | normalised enrichment score
L7H | -0.181
S2E | -0.275
D11T | 0.454
P13Y | -0.00986
P12H | 0.296
D11I | -0.293
A3L | -0.296
G9D | 0.403
P13M | -0.206
S2F | 0.32
D11H | 0.201
R6L | -0.585
R5K F8L | 0.237
P13K | 0.155
P12F | -0.0311
S2C | 0.69
G9R | 0.195

Some of these lines once more (set 3):
Change | relative binding score [%]
E130S | 38.2
Y18R | -1.3
T160M | 2.56
S150L | 3.62
V100M | 6.16
V143S | -2.48
F5M | 37
